Measurements collected from several papers.
A part holds a random share of what one study measured. Changes are numbered by the printed parent chain.

Study 1 — method: DHFR PCA, deep sequencing; sample: yeast; together with: (+)-ABA 1.4 µM; baseline: wild-type fitted maximum; direction: higher = stronger binding
Target: ABI1, truncated, D143A, DHFR fusion (Arabidopsis thaliana)
Setting: methotrexate growth selection, single substitutions
Parent: PYL1, truncated, DHFR fusion (Arabidopsis thaliana); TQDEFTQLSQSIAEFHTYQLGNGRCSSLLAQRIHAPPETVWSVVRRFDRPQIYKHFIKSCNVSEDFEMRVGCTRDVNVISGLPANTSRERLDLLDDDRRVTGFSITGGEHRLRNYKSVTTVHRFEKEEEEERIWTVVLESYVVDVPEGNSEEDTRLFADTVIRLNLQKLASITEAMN; partner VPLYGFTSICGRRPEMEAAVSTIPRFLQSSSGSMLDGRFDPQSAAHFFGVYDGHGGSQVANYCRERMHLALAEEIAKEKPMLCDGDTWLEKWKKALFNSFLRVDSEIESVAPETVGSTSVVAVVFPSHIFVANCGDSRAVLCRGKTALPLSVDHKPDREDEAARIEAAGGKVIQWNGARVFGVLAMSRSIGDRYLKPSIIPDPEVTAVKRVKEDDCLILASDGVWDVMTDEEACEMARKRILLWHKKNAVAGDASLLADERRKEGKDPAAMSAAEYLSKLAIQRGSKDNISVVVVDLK
| Change | relative binding score |
| --- | --- |
| N177D | 57.9% |
| L112P | 16.3% |
| L164N | -1.29% |
| P36Q | 27.2% |
| I162P | 0.598% |
| F5N | -1.67% |
| T106K | 6.31% |
| S140M | 9.24% |
| A84M | 34.8% |
| D153F | -27.2% |
| L28C | 30.6% |
| E4K | 24% |
| D48R | -5.52% |
| H16Q | -2.03% |
| P83C | 4.1% |
| S150T | 75% |
| R45M | -12.7% |
| A175G | 61.8% |
| V62F | 7.83% |
| G107K | -3.89% |
| R111I | 3.59% |
| K116F | -2.25% |
| G23M | 25.9% |
| V136W | 27.6% |
| V121W | -9.12% |

Study 2 — method: universal PBM; molecule type: double-stranded DNA, one strand shown; sample: in vitro; concentration: 600 nM; direction: higher = stronger binding
Target: Sal-like protein 4, full length isoform A (SALL4, Homo sapiens, UniProt Q9UJQ4, residues 1-1053)
Sequence of UniProt Q9UJQ4 (whole entry, looked up): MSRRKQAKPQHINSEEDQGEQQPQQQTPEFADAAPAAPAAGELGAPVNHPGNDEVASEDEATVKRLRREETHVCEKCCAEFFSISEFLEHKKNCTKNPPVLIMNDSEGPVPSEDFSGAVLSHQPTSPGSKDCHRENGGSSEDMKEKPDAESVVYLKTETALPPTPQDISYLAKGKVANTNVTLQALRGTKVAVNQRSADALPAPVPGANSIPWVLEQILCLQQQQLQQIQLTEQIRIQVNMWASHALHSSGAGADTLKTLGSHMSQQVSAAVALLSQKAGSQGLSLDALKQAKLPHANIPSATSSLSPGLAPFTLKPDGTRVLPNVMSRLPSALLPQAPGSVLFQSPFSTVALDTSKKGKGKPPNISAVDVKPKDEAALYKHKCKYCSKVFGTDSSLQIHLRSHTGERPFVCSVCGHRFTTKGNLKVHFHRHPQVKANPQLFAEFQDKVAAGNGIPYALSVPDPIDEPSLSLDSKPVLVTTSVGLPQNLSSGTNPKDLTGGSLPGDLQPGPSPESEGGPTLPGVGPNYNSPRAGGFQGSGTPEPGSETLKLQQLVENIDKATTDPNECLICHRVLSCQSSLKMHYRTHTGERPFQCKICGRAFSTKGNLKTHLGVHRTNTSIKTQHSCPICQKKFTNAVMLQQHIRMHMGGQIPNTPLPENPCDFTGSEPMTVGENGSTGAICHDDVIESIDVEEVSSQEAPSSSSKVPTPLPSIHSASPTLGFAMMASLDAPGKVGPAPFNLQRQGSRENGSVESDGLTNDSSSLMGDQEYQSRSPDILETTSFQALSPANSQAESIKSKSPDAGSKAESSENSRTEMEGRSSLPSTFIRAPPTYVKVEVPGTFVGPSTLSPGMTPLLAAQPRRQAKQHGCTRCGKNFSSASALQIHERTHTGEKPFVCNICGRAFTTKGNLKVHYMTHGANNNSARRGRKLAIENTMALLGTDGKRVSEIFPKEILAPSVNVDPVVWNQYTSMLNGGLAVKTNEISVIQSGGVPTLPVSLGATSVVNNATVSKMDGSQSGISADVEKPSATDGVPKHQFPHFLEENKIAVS
Setting: 8-mer, flanks averaged, mean of replicates
| Sequence | E-score |
| --- | --- |
| ATTTTAAA | 0.352 |
| CTTTCTAC | 0.0222 |
| AGACCCAT | -0.0746 |
| ATACTCAA | 0.207 |
| ATGCTCTG | -0.0741 |
| CGATCAAC | -0.0308 |
| GTGATTTA | 0.185 |
| CACTCCCG | -0.127 |
| CTCACTAC | 0.0255 |
| CCCTGGTA | -0.293 |
| AAGCGCAT | -0.0447 |
| GAGGCATA | 0.0763 |
| CCATGGAG | -0.178 |
| ACTTAAAC | 0.138 |
| GAGGTAGA | -0.157 |
| ACGGTGAC | -0.15 |
| AGGCTATG | -0.0856 |
| ACAGGGCG | -0.11 |
| AATGAACT | 0.138 |
| ATATACTG | 0.277 |
| ATTACAGC | 0.123 |

Study 3 — target: BATF2, bZIP domain (human); method: DHFR protein complementation; sample: yeast; baseline: wild-type JUN-FOS pair; direction: higher = stronger binding
Setting: single substitutions, most at no-binding floor
Parent: JUN, bZIP domain (human); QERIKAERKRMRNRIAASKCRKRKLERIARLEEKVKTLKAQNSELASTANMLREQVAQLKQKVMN; partner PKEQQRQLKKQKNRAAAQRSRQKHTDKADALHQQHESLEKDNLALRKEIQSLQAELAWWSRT
| Change | binding fitness [natural log] |
| --- | --- |
| M51N | -0.223 |
| K34W | -0.401 |
| N42F | -1.06 |
| E32K | -0.452 |
| T37W | -0.302 |
| E54T | -0.465 |
| N42E | -1.32 |
| L59G | -1.39 |
| V35H | -1.27 |
| A40G | -0.555 |
| S47C | -0.298 |
| K36G | -0.444 |
| A57G | -0.452 |
| L38G | -1.34 |
| T37P | -1.4 |
| E54K | -0.427 |
| E54L | -0.636 |
| A29P | -0.888 |
| E54W | -1.03 |
| E32C | -0.914 |
| K34C | -0.355 |

Study 4 — target: CCNA1, cyclin fold, Cln2 fusion (human); method: yeast growth competition, sequencing; sample: yeast; setting: strong parent motif; baseline: not given; direction: higher = stronger binding
Parent: E2F1 docking peptide (human); PPVKRRLDFETDH; partner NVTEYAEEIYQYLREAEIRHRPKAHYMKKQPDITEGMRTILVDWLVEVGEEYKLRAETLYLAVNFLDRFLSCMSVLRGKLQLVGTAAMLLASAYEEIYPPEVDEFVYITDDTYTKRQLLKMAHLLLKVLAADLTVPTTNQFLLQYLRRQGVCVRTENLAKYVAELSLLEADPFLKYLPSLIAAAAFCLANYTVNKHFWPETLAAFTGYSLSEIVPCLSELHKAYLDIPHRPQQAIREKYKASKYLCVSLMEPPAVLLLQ
| Change | normalised enrichment score |
| --- | --- |
| F9C | 0.165 |
| R6V | 1.11 |
| R5A | 0.408 |
| T11K | 1.75 |
| D12I | 1.96 |
| P2R | 2.05 |
| R5H | -0.224 |
| E10T | 1.63 |
| F9K | 0.0105 |
| P2I | 2.03 |
| F9M | 1.21 |
| K4E | 0.0424 |
| V3N | -0.00734 |
| D8L | 1.41 |
| L7A | 0.538 |
| K4P | 0.34 |
| L7D | -0.0664 |
| K4N | 1.06 |
| T11Q | 1.68 |
| R6H | 1.08 |
| R5V | 0.41 |

Study 5 — method: RNA Bind-n-Seq; molecule type: RNA; sample: in vitro; concentration: not given; setting: RNA with constant flanks, ends assumed; baseline: input RNA pool; direction: higher = stronger binding
Target: RING finger protein unkempt homolog, zinc fingers 1-6, GST-SBP tag (UNK, Homo sapiens, UniProt Q9C0B0, residues 30-357)
Sequence of UniProt Q9C0B0 (30-357, looked up): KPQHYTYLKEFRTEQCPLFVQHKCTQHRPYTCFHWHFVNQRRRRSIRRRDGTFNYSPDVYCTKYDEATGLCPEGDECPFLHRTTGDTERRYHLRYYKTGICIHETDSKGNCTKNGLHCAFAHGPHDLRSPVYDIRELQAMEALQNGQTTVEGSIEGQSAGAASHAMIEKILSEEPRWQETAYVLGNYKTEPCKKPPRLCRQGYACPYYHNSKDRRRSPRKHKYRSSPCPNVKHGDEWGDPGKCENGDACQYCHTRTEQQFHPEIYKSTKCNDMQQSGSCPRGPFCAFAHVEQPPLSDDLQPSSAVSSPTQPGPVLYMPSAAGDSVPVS
| Sequence | bound/input enrichment [ratio] |
| --- | --- |
| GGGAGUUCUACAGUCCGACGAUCGCCAUGUGAUUUGCAAAUGGGGGGAAGCUACUGUGAGCGUGUGUUUUUUUAAUUUACACUACCGAGUGAUUUUUUUUUCCCCCAACGUCAAGUUUUUACCUUGCAUGUACUGGAGUAUUUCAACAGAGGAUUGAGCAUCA | 0.23 |
| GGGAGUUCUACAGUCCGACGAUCUCCCAUGACCAGAGGACUCUGAUCACUGGCAUGGCUUCUGGUAGCAUUGUAGCUUUUAAUACCGAUUUUAAUCGGUGGCAUUAUGAGCAUCAGAACAGAUACUGAAGAUAAAGGAAGAACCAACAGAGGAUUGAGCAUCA | 0.228 |
| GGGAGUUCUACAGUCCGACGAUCACCUUUGUGGACAAGGAUUUUGUACCAUAUCAAGAUAUAAGGAUAAAUCAUACAGUGAUUUCCGAUGAUCCAUUUGAUGACCCUCCUGAUUUAUUAAUUCCUGAUCGAUCACCCGAGCCUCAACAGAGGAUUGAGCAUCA | 0.109 |
| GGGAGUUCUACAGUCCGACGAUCCUGGAGAGAAUAAAGAGCAGUCGCAAAUGAAGCUGCCCCACUCCCCCGGCACCCUGCAGCUUCCGUUUACUAAACUAGAAGUCCUCAUAGUUUAAAAUGGCCUCAGCAGGCCUAGUGUAUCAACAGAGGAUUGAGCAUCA | 4.51 |
| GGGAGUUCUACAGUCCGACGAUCCGAUGUCCAGUCACUGUGUGUGGAGAUGUACAUGGGCAAUUUCAUGAUCUCAUGGAACUCUUCCGAAUUGGUGGUAAAUCACCAGAUACAAAUUACCUGUUUAUGGGAGACUAUGUGGACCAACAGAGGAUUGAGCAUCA | 0.148 |
| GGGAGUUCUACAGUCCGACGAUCCGCCUGAUGGAAAGCCACGGCUUUGAGGAGUACAUGAAAGAGCUAGGAGUAGGACUGGCUCUCCGGAAGAUGGCUGCCAUGGCCAAGCCAGACUGUAUCAUUACGUGUGAUGGCAACAACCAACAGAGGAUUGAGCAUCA | 0.183 |
| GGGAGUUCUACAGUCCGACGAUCAAUAUGGCCAAACAGAUUGGAGCAGCUACUUAUAUCGAAUGCUCAGCUUUACAGUCGGAAAACCGCGUCAGAGACAUUUUUCACGUUGCCACCUUGGCAUGUGUAAAUAAGACAAAUAAACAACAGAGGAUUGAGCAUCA | 0.169 |
| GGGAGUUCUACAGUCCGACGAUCUGUUAUCUGUUGCAGAAGGGAUGUAUUUGGCAGAAUCUCAGGCUGCAUGUCUGGUAGCUCAUCCGAGCCAGGAGAGAUUUUAGUUUAAUUAUAGCCUUUCAUUGUACUAACGAAGGAUUUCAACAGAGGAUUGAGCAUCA | 1.25 |
| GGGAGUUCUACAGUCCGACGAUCUCUCGGGAACAGCUUGCGAUUGCAGAGUUUGCAAGAUCACUUCUUGUUAUUCCCAAUACACCCGCAGUUAAUGCUGCCCAGGACUCCACAGAUCUGGUUGCAAAAUUAAGAGCUUUUCAUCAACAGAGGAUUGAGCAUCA | 0.102 |
| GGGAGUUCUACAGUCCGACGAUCUUGUUUAAUAUUUAGAAGCACACAAAAAAGAGGAGAAUCGUUUGGAAUCAGCAGAACCGGCCGCAAAAUUAAAGGCGUAUUCAAGAGUACGACAAUGGAGGGAGCUGUGCUGCCUAAUUACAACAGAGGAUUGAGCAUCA | 0.701 |
| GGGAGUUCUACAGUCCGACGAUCUGGAAGCUUUGCUGAAAACCUUUCAUUUCUUCUGGAAGCUUUGCAAAAAGGUGACCGGACCCGCAGUUGCCCAGUGAUCUUCAUACUGGAUGAAUUUGAUAUUUUUGCUCAUCAGAAAAACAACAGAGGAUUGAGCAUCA | 0.177 |

Study 6 — method: protein binding microarray; molecule type: double-stranded DNA, one strand shown; sample: in vitro; concentration: not given; baseline: not given; direction: higher = stronger binding
Target: Histone acetyltransferase KAT6A, winged helix 1, GST fusion (KAT6A, Homo sapiens, UniProt Q92794, residues 1-85)
Setting: 8-mer, flanks averaged, mean of 2 arrays, mostly near background
Residues (chain): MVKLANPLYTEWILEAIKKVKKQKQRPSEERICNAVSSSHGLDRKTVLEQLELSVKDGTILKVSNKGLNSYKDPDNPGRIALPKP
| Sequence | E-score |
| --- | --- |
| GAACAAGC | 0.00206 |
| ACTTTGGG | -0.207 |
| CAGTAGCC | 0.0645 |
| GCTCTTAA | -0.0907 |
| CACATTAA | -0.245 |
| GATTTTGC | -0.109 |
| GAGCAAAA | -0.197 |
| AGTGGACC | -0.103 |
| AACCGTAT | 0.119 |
| CTCCACTC | -0.17 |
| CTGCCAGC | -0.13 |
| GCGCCGGA | 0.413 |
| ATCCCGAC | 0.215 |
| TATGGGAA | -0.147 |
| AAGAACAA | -0.152 |
| CCACTTCC | -0.176 |
| AGTTGTAG | -0.175 |
| TCTAAGCA | -0.0983 |
| ACACACGT | -0.0907 |
| AAACTTCC | -0.0587 |
| AGACCTCC | -0.115 |
| AGCACATC | -0.139 |
| CCCATGAA | -0.285 |
| AACTACAT | -0.138 |
| AATAAGTC | -0.169 |

Excerpt of the above (study 1):
| Change | relative binding score |
| --- | --- |
| A84M | 34.8% |
| V121W | -9.12% |
| G23M | 25.9% |
| L112P | 16.3% |
| D48R | -5.52% |
| R111I | 3.59% |
| N177D | 57.9% |
| K116F | -2.25% |
| D153F | -27.2% |
| V62F | 7.83% |
| R45M | -12.7% |
| E4K | 24% |
| P83C | 4.1% |
